Measurements collected from several papers.
Parts stem from different laboratories: compare values within a part only. Changes are numbered by the printed parent chain.

Block 1 — method: RNA Bind-n-Seq; molecule type: RNA; matrix: in vitro; tested at: not given; relative to: input RNA pool; reading: higher = stronger binding; measurement: bound/input enrichment
Target: RING finger protein unkempt homolog, zinc fingers 1-6, GST-SBP tag (UNK, Homo sapiens, UniProt Q9C0B0, residues 30-357)
Setting: RNA with constant flanks, human-mouse chimeric sites, ends assumed
Construct (chain): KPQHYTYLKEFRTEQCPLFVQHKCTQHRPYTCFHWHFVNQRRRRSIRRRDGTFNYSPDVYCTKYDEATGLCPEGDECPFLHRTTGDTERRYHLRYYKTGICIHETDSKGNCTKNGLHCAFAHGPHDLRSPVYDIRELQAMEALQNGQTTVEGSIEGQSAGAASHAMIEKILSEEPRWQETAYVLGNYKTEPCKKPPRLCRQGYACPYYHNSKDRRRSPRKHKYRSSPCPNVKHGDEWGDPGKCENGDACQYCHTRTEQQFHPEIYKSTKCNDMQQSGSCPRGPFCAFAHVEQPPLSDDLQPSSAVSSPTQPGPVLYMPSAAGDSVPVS
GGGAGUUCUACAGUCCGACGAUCACACAAUAUGAGACCAACAGCAUGGACUUCAAAGUCGGGGCAGAUGGGACAGUCUUCGCCACCCGGGAGCUGCAGGUCCCCUCCGAGCAGGUGGCGUUUACCGUCACUGCAUGGGACAGCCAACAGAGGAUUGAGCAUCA: 0.176 ratio
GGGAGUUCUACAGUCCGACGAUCCAACAGAGUCUAGGAUGGGUUCAUUACAUGAUUCAUGAGCCAGAACCGCAUAUUCUUCUCUUUAGACGACCUCUUCCAAAAGAACAACAAAAAUGAAGUUUAUCUGGGGAUCGUCAAUCUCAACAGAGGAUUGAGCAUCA: 0.202 ratio
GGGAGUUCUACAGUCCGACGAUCCAGGGCAUUAUUUCUCGUGCUGUUAGACACCUGUUCAAGAGUAUUGAUGAGAAAAAGACCUCAGCGAUUAAAAACGGGCUUCCUGCUCCUGAAUUCAAAGUGAAUGCCCAGUUCCUAGAGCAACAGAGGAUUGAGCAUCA: 0.101 ratio
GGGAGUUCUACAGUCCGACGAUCGUGCCCUUCUCGCUGCUGCGGAGCCCGAGCUGGGAACACCCCUUCCGCUGGUACCCUGCACACAGCCGCCUCUUCGAUCAAGCUUUCGGGGUGCCCCGGUUGCCCGAGGAGUGGUCGCAGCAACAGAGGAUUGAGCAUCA: 0.0634 ratio
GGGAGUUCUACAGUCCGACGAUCAGAAAGCAAAACUUGGAACGAUUUAAGAAAGGAGACGUAAGAUUCUUGAUUUGCACAGAUGUAGCUGCUAGAGGGAUUGAUAUCCACGGCGUUCCUUAUGUGAUCAACGUCACCCUGCCUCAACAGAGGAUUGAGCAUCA: 0.171 ratio
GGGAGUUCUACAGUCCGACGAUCUGUAGUUUCUUGAUUUAUCAUUUUUCUCUUUUCUUUCUUUCCUUUAGGAAAAGCCUAAAGAUUAGACUGUAAGAAAAACAGAAGCCAUGUUUCGAAGGAAGACCUGUCAGGUAUUUCGUCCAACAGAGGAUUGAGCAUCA: 0.108 ratio
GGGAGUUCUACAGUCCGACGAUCGCACUUCUCAAAUACUGGCCAAAGACUCACAGUCCAAAAGAAGUAAUGUUCUUAAAUGAAUUAGAAGAAAUUUUAGAUGUCAUUGAACCAUCAGAGUUUGUGAAGAUCAUGGAGCCUCUUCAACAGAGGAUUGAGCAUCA: 0.3 ratio
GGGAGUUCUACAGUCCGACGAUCAAAGAUCUACUGAGGCAAGGCAGCAAAUUUAGAAGAAACAUUUCAACAAUAUUGAUAGAGUUAGGAUUCCAAAUUAAAAAGAAAACUAAGACAUUAUACAUCAACAAAGCCAAUGUGUGGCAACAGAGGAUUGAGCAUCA: 13.7 ratio
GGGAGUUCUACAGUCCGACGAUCGUUCGGCUCUGGGAUCAUGCCACAAUGACAGAAGUGAAAUCUCUAAAUUUUAAUAUGUCUGUUAGUAGCAUGGAGUAUAUUCCUGAAGGAGAGAUUUUGGUUAUUACUUAUGGACGAUCUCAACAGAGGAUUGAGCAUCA: 0.426 ratio
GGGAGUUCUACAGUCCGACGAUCGGGUGGGUGGUCAUUGCCGUUUGAGCUGCUGAUUUUCAUGAGUCGCCUUCAAAACUCUCGUGUAGGGUUGACAAUGUGGGGGGGUGGGGGAUCCAGCUAUUUUUUUUAUUUUCAAGUCCACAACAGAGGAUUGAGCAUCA: 1.62 ratio
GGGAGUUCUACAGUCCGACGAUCCCCCAAUACCAUUUGCAGGUCUGGAACUGCACUCUCUUUUUUAAAAAAUAUGCAUAUAUUUUAGGGCUGUAGAUUUACUUUCCUAUUUUUGUUUUUCAUUGCUGACUUUUGAGCACAGAACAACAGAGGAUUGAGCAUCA: 1.12 ratio

Block 2 — method: DHFR PCA, deep sequencing; matrix: yeast; together with: (+)-ABA 0.032 µM; relative to: wild-type fitted maximum; reading: higher = stronger binding; measurement: relative binding score
Target: ABI1, truncated, D143A, DHFR fusion (Arabidopsis thaliana)
Setting: methotrexate growth selection, single substitutions
Parent: PYL1, truncated, DHFR fusion (Arabidopsis thaliana); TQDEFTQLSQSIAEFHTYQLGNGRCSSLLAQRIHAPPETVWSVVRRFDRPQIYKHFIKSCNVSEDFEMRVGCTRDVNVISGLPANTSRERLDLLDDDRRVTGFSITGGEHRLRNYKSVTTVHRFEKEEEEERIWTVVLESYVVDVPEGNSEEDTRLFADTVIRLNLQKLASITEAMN
N165L: 2.52%
S104C: 4.3%
V145F: -10.7%
E128R: 12.5%
Q2A: 45.6%
S27L: 2.73%
G102Q: 0.108%
S9K: 63.1%
R74M: -7.76%
R155N: -2.9%
T135P: 0.318%
T1V: 34.7%
S150F: -10.6%
P83V: 5.67%
V118A: 2.44%

Block 3 — method: protein binding microarray; molecule type: double-stranded DNA, one strand shown; matrix: in vitro; tested at: not given; relative to: not given; reading: higher = stronger binding; measurement: E-score
Target: Histone acetyltransferase KAT6A, both winged helices, GST fusion (KAT6A, Homo sapiens, UniProt Q92794, residues 1-181)
Setting: 8-mer, flanks averaged, mean of 2 arrays, mostly near background
Residues (chain): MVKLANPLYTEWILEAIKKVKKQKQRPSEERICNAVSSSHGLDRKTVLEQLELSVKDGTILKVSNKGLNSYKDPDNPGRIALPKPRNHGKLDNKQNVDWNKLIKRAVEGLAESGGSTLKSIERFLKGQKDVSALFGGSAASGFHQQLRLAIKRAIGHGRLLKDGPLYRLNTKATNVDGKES
AGATCTCA: -0.00356
TGCCAGAA: -0.0585
CCTTAGAA: -0.161
AGCGATGC: 0.0887
AGGTTACT: -0.144
ACTCGTAT: -0.124
ACACCACG: -0.0216
GCTTCTAC: 0.00314
ATCACTAA: 0.0553
ACGACTTA: -0.112
CTCCGCAG: 0.00687
AACTCCGA: 0.0632
ACCACCCT: -0.209
AGAACCTA: -0.108
CAATCCTA: -0.123
CTTTTTAC: 0.0032
CGTTAACA: 0.0967
GGCGTGAC: 0.0736
CGATTGGA: -0.0659
CTTATGAC: -0.0204
GGCTAGCC: -0.0277
CGCCAGCA: -0.0348

Block 4 — method: universal PBM; molecule type: double-stranded DNA, one strand shown; matrix: in vitro; tested at: not given; reading: higher = stronger binding; measurement: E-score
Target: Sal-like protein 4, full length isoform B (SALL4, Homo sapiens, UniProt Q9UJQ4-2, residues 1-616)
Setting: 8-mer, flanks averaged, mean of replicates
Construct (chain): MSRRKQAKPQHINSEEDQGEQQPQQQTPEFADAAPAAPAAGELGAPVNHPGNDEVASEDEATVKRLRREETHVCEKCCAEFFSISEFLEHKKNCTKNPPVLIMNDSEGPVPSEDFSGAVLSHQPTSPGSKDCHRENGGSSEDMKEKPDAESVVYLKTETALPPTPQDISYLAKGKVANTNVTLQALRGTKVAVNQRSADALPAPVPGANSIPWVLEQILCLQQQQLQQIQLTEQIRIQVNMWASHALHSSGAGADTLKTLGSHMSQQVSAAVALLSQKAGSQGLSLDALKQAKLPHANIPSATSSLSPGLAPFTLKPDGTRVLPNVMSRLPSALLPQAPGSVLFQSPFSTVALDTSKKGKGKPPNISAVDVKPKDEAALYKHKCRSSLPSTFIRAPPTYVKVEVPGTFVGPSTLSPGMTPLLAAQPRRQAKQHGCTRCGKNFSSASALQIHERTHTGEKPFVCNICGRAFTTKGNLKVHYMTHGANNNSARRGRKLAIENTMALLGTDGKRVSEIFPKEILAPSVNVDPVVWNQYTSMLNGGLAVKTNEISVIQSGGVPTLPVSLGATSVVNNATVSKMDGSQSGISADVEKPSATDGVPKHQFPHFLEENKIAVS
ATACAAAC: 0.307
TATCAAAA: 0.309
ACCTTGGG: -0.0774
AACTGCAT: 0.15
AATTCCCC: 0.0558
AGGAAGCC: -0.0978
GAGGGTTA: 0.068
GAGCCACC: -0.284
CAGGGACA: -0.184
TCTAGACA: 0.121
CACCTCTG: -0.163
AAGGCTCT: -0.159
ATAGCGAA: 0.35
GGCGCTAA: -0.168
ATTGTGCA: 0.0857
ATCCTCTG: -0.045
AGGATCCC: -0.182
CGGGTCAG: -0.237
ATATTGAG: 0.272
CTCGCGTA: -0.09
CGTGGCAA: -0.0438
ACAACCCC: -0.0903
GAACAGCA: 0.0664
GTCCAGTA: -0.0703
AAACCTAC: 0.073

Block 5 — method: RNA Bind-n-Seq; molecule type: RNA; matrix: in vitro; tested at: 200 nM; setting: whole 134-nt RNA, ends assumed; together with: 150 mM LiCl; relative to: input library; reading: higher = stronger binding; measurement: log2 enrichment; library: 7-deaza-guanosine replaces G
Target: Ras GTPase-activating protein-binding protein 1, full length (G3BP1, Homo sapiens, UniProt Q13283)
Chain of UniProt Q13283 (whole entry, looked up): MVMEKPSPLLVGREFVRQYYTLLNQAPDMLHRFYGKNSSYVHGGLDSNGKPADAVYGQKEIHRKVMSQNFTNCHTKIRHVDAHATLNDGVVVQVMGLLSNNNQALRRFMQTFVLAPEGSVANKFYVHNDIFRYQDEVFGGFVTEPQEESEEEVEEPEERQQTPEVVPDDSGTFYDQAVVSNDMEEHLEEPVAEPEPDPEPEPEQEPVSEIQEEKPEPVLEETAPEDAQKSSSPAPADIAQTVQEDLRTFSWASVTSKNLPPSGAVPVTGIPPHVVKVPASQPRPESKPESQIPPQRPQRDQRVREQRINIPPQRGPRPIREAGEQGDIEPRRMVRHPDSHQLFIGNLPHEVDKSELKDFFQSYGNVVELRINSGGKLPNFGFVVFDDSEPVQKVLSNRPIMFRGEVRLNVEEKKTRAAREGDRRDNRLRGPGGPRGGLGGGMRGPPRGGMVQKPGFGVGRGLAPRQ
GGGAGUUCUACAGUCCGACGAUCCUGUGCUACACAUCGUAUGUACCGAAUCGGGGUUUGGGGUUUUUUUGGGGUUUUUUUGGGGAAAGUAUUAUGUUACGCCGUUCGGAUCUGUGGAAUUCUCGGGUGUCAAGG: 1.45
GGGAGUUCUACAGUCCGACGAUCAAGUCCUGUGCUACACAUCGUAUGUACCGAAUCGGGUUUUUGGGAGGGAAAAAGGGAAAGUAUUAUGUUACGCCGUUCGGAUCUGCACUUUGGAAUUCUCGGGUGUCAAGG: 0.0959
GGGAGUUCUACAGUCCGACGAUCCUCAAGUCCUGUGCUACACAUCGUAUGUACCGAAUCGGGGUUGGGUUGGUUGGAAAGUAUUAUGUUACGCCGUUCGGAUCUGCACUUCCAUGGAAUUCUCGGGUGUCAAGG: 0.352
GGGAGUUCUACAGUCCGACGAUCUCCUGUGCUACACAUCGUAUGUACCGAAUCAAACCCCCCCAAACCCCCCCAAAUUUAAAAAAGUAUUAUGUUACGCCGUUCGGAUCUGCAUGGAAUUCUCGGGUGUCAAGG: 0.251
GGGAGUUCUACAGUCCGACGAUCUGUGCUACACAUCGUAUGUACCGAAUCGGGGAAAAAAAGGGGUUUUUGGGGUUUUUUUGGGGAAAGUAUUAUGUUACGCCGUUCGGAUCUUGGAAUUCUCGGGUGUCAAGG: -0.463
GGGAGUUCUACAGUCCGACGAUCGCAGGAAGUAAAAACAAAUGGAAAUGCUUCGGAUAGUGGCAGGGGUGGGGGUUGCUAAGGAAAGGGUGAAAUGGGAGUGGGUAAAGAGUUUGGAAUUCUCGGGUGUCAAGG: 0.229
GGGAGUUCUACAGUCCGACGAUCUGGGAGGUGGAUUUUGUUUAUUUUUUUAGCUCAUUUCCAGGGGUGGGAAUAUUUUUUUAAUAUGUGUCAUGAAUAAAGUUGUUUUUGAAAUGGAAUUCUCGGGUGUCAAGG: -0.147
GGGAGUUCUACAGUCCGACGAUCUGUAGAAAAGGCACUGGACUAACACUUGGCUGUAUCUUGUAACAGGCAUGUUAUGUUACCCAGAGAACUUUCCAAACAAGUACCUAAAACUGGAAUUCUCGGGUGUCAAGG: 1.11
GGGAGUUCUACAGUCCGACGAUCGUCCUGUGCUACACAUCGUAUGUACCGAAUCGGGAAAAAGGGUUUUUUUGGGUUUGGGAAAGUAUUAUGUUACGCCGUUCGGAUCUGCACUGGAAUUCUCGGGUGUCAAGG: -2.32
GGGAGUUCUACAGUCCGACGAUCCUCAAGUCCUGUGCUACACAUCGUAUGUACCGAAUCGGAGGUUUGGAAAAAGGAAAGUAUUAUGUUACGCCGUUCGGAUCUGCACUUCCAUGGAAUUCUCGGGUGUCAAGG: -0.655
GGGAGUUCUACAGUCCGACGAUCUGGGAGGUGGAUUUUGUUUAUUUUUUUAGCUCAUUUCCAGGAGUGGGAAUUUUUUUUUAAUAUGUGUCAUGAAUAAAGUUGUUUUUGAAAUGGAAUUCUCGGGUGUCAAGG: -0.525

A few entries again (block 4):
ATTGTGCA: 0.0857
ATCCTCTG: -0.045
AGGATCCC: -0.182
CGGGTCAG: -0.237
ATATTGAG: 0.272
